Published values pooled from the literature.
Lines come from different studies, so protocols differ. ± gives the spread as reported.
RPS6KA4: Ribosomal protein S6 kinase alpha-4 (RPS6KA4, Homo sapiens, UniProt O75676)
Chain of UniProt O75676 (whole entry, looked up): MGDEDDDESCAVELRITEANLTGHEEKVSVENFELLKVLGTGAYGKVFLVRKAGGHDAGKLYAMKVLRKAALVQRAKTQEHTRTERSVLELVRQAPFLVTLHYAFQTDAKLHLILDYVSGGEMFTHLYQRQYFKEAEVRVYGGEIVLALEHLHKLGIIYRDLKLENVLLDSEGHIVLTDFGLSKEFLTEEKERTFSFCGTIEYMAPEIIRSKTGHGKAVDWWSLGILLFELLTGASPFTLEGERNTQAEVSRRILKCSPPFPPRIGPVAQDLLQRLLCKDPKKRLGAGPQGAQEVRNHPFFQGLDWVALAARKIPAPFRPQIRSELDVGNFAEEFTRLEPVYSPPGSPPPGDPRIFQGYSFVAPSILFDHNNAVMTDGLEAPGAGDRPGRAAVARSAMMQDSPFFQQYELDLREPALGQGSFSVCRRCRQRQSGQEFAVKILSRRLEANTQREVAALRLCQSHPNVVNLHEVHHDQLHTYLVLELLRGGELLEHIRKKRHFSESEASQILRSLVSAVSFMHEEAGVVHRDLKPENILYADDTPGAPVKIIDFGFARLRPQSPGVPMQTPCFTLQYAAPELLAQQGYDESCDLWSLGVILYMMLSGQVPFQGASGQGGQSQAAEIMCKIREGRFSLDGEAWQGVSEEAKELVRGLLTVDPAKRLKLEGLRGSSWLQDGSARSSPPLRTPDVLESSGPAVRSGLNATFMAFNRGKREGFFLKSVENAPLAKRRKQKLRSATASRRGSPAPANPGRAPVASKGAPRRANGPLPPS
RPS6KA4 C-terminal kinase domain: Ribosomal protein S6 kinase alpha-4, C-terminal kinase domain (RPS6KA4, Homo sapiens, UniProt O75676)

SMILES	target	assay	setting	scale	endpoint	result
CNc1ncc2c(/C=C/C(=O)N3CCC(OC)CC3)nn(Cc3cccc(C(F)(F)F)c3)c2n1	RPS6KA4	kinase activity, inhibitor	1 µM	reference: untreated control	remaining activity	86%
CC#CC(=O)N1CCC[C@H]1c1nc(-c2ccc(C(=O)Nc3ccccn3)cc2)c2c(N)nccn12	RPS6KA4	kinase activity, inhibitor, HotSpot radiometric	100 nM, together with: ATP 10 µM	–	remaining activity	95 ± 1.3%
COc1cc(-c2cncc3c2CN(C)Cc2cc(N4CCNCC4)ccc2-3)cc(OC)c1OC	RPS6KA4	kinase activity	1 µM, human enzyme, together with: ATP 10 µM	reference: DMSO control	remaining activity	115%
COc1cc(F)ccc1-c1ncnc(Nc2cccc(C[S@](C)(=N)=O)c2)n1	RPS6KA4	kinase activity	10 µM, together with: 10 µM ATP	–	remaining activity	95%
COc1ccc(F)cc1C(=O)NCc1ccc(-c2nn([C@@H](C)C(F)(F)F)c(N)c2C(N)=O)cc1	RPS6KA4	kinase activity, inhibitor, HotSpot radiometric	100 nM, together with: ATP 10 µM	–	remaining activity	77.7 ± 0.1%
COc1cc(N2CCN(C)CC2)ccc1Nc1nc(N)n(C(=S)NCc2c(Cl)cccc2Cl)n1	RPS6KA4 C-terminal kinase domain	enzyme activity	10 µM	reference: control	remaining activity	0.1%
C=CC(=O)N1CCC([C@@H]2CCNc3c(C(N)=O)c(-c4ccc(Oc5ccccc5)cc4)nn32)CC1	RPS6KA4	kinase activity, inhibitor, HotSpot radiometric	100 nM, together with: ATP 10 µM	–	remaining activity	94%
CCOc1cc(N2CCN(C)CC2)ccc1Nc1nc(N)n(C(=O)NCc2ccccc2S(=O)(=O)C(C)C)n1	RPS6KA4 C-terminal kinase domain	enzyme activity	10 µM	reference: control	remaining activity	7.2%
Cc1cc(Nc2cc(N3CCN(C)CC3)nc(Sc3ccc(NC(=O)C4CC4)cc3)n2)[nH]n1	RPS6KA4	kinase activity, KinaseProfiler	0.03 µM, species human	reference: control	remaining activity	104%
COc1cc(N2CCN(C)CC2)ccc1Nc1nc(N)n(C(=O)NCc2ccccc2S(=O)(=O)C(C)C)n1	RPS6KA4 C-terminal kinase domain	enzyme activity	10 µM	reference: control	remaining activity	1.9%
C=CC(=O)N1CCC(COCC(=O)N2CCN(c3nc(-c4cnc(N)nc4C(F)F)nc(N4CCOC[C@@H]4C)n3)CC2)CC1	RPS6KA4 C-terminal kinase domain	KINOMEscan	1 µM	–	remaining binding	100%

Repeated from above:
SMILES	target	assay	setting	scale	endpoint	result
C=CC(=O)N1CCC(COCC(=O)N2CCN(c3nc(-c4cnc(N)nc4C(F)F)nc(N4CCOC[C@@H]4C)n3)CC2)CC1	RPS6KA4 C-terminal kinase domain	KINOMEscan	1 µM	–	remaining binding	100%
